Measurements gathered from unrelated publications.
Every numbered part comes from another study and shows a few of its results, in no order.
Sequence of UniProt Q9UIK4 (whole entry, looked up): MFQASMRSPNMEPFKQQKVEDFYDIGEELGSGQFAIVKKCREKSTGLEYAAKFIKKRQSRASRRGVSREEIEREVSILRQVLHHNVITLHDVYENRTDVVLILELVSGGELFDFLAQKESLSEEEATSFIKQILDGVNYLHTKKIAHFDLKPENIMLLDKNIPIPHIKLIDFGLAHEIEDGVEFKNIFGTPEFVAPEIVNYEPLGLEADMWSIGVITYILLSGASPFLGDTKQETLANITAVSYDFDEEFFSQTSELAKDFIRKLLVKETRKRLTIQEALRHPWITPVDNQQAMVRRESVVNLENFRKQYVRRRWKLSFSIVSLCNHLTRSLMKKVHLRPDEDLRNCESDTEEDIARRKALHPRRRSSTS
Sequence of UniProt P23458 (whole entry, looked up): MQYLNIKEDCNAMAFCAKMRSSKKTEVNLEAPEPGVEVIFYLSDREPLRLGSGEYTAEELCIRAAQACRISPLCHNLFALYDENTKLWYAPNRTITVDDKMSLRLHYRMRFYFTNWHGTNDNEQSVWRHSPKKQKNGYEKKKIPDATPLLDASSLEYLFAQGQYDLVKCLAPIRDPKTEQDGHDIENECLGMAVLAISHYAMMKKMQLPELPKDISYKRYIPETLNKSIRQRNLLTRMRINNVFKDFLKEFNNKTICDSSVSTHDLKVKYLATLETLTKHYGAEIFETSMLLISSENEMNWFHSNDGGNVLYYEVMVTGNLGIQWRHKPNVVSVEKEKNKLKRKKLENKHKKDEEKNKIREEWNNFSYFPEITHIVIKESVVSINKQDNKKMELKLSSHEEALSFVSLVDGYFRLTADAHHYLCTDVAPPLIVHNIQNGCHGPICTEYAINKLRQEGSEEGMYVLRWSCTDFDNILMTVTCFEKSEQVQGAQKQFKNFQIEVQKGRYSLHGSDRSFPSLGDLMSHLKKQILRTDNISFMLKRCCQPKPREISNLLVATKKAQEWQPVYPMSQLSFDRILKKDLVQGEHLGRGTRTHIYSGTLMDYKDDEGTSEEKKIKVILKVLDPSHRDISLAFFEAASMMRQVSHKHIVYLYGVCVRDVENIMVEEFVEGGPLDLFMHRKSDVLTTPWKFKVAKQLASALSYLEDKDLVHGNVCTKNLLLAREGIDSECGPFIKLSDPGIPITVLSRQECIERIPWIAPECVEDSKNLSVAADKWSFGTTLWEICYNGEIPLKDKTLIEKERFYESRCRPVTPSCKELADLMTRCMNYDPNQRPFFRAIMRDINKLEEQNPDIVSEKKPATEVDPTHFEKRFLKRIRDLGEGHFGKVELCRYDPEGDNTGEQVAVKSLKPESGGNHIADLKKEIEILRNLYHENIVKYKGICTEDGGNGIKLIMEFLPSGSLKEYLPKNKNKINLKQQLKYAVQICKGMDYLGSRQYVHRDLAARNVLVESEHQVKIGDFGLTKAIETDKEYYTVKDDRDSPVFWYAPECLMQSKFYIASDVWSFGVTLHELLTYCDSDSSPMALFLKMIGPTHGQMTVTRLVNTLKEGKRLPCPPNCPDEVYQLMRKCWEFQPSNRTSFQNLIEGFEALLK
Sequence of UniProt P51812 (whole entry, looked up): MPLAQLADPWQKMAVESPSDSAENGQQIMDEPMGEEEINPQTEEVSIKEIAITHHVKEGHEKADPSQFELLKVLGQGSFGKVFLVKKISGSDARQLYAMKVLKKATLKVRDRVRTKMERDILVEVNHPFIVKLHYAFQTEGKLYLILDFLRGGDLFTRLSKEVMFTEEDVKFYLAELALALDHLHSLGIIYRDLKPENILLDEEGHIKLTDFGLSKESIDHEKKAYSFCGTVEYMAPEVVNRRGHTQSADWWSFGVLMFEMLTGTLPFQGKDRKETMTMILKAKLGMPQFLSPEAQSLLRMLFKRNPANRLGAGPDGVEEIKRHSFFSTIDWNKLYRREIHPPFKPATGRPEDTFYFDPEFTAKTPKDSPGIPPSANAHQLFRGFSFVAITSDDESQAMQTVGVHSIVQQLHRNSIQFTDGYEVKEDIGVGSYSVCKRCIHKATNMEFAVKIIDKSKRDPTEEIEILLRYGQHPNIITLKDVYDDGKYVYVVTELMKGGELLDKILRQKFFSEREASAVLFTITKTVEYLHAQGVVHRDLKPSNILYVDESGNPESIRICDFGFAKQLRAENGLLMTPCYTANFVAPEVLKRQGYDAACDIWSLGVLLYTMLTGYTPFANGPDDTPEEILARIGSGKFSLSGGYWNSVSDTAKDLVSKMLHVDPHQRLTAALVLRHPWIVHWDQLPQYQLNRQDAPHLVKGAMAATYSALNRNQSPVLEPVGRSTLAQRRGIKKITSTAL

Study 1 — action: inhibitor; quantity: inhibition
SMILES: Cc1nc(Nc2ncc(C(=O)Nc3c(C)cccc3Cl)s2)cc(N2CCN(CCO)CC2)n1
target = Membrane-associated tyrosine- and threonine-specific cdc2-inhibitory kinase (PKMYT1, Homo sapiens, UniProt Q99640); conditions = 10 µM; result = 100%
target = Non-receptor tyrosine-protein kinase TYK2, JH2 pseudokinase domain (TYK2, Homo sapiens, UniProt P29597); conditions = 1 µM; result = < 50%
target = Mitogen-activated protein kinase 14 (MAPK14, Homo sapiens, UniProt Q16539); conditions = 10 µM; result = 100%
target = Mitogen-activated protein kinase kinase kinase 10 (MAP3K10, Homo sapiens, UniProt Q02779); conditions = 10 µM; result = < 50%
target = Mitotic checkpoint serine/threonine-protein kinase BUB1 (BUB1, Homo sapiens, UniProt O43683); conditions = 1 µM; result = < 50%
target = Proto-oncogene tyrosine-protein kinase receptor Ret (RET, Homo sapiens, UniProt P07949); conditions = 1 µM; result = < 50%
target = Uncharacterized serine/threonine-protein kinase SBK3 (SBK3, Homo sapiens, UniProt P0C264); conditions = 10 µM; result = < 50%
target = Serine/threonine-protein kinase RIO2 (RIOK2, Homo sapiens, UniProt Q9BVS4); conditions = 10 µM; result = < 50%

Study 2 — read-out: enzyme activity; action: inhibitor; tested at: 77 µM; reference: untreated; quantity: remaining activity
Target: DNA polymerase theta, ATPase domain (POLQ, Homo sapiens, UniProt O75417)
Sequence of UniProt O75417 (whole entry, unmodified, looked up): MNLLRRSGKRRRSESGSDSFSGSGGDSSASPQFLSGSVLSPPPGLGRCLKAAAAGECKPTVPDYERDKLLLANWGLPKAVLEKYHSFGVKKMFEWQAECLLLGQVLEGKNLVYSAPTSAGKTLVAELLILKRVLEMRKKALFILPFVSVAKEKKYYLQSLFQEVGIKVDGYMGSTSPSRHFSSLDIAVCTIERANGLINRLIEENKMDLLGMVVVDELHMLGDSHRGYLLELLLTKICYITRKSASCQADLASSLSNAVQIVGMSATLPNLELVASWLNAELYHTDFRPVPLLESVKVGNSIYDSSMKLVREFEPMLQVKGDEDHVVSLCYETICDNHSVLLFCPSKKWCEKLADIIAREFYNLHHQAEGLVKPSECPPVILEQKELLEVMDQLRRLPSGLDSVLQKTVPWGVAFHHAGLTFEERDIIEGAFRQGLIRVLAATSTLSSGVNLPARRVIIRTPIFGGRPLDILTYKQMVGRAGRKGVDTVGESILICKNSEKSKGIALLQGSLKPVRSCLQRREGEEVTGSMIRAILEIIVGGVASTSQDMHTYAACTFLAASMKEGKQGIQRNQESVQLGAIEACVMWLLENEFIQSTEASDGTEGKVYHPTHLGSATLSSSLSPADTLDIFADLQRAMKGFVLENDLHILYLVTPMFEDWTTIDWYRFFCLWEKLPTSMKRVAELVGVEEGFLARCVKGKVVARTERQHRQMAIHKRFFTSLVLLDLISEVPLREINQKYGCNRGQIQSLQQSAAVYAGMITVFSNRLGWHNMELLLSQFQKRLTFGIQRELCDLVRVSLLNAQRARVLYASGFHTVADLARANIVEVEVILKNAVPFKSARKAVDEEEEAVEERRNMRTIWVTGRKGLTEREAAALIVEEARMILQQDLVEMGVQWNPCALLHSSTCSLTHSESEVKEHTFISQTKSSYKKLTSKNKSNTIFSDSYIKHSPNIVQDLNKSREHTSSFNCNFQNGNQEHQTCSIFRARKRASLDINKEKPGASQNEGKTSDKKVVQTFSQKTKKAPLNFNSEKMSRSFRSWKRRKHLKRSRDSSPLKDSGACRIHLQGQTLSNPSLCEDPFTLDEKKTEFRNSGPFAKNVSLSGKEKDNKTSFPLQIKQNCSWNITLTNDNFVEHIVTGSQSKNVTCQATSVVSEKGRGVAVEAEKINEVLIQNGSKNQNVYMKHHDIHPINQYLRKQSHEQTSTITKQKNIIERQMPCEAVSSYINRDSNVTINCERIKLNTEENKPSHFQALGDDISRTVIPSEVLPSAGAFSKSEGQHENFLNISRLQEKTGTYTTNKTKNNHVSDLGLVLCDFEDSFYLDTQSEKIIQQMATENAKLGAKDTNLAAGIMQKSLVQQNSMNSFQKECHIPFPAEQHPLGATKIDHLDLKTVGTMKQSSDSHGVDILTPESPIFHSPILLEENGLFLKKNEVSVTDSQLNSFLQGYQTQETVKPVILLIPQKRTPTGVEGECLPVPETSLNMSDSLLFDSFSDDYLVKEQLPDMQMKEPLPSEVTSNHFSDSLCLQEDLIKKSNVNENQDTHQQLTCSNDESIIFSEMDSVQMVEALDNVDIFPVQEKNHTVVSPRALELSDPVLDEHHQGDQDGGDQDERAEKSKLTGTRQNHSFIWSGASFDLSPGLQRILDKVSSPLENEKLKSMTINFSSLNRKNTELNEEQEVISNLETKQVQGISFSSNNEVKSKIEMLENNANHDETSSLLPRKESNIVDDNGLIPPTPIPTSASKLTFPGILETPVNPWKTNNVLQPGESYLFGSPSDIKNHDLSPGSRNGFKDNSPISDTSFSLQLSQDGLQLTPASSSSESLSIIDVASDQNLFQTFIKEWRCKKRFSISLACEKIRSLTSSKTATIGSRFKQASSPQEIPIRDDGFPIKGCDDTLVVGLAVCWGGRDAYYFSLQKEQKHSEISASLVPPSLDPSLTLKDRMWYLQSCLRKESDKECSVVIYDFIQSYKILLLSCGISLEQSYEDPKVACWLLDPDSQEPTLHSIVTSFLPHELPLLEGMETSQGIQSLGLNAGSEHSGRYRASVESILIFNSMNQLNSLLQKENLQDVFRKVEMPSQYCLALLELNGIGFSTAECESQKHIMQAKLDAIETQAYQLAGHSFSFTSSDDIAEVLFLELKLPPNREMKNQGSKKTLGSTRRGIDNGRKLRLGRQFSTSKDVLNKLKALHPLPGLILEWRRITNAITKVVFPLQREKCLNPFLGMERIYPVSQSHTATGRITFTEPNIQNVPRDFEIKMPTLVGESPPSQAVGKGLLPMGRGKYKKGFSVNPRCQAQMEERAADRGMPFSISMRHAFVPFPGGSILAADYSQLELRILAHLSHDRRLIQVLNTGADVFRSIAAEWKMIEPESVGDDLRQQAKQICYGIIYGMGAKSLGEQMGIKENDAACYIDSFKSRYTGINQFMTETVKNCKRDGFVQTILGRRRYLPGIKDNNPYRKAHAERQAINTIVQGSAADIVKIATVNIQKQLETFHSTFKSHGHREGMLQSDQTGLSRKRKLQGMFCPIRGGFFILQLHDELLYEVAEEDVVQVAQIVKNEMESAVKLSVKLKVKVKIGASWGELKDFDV
SMILES = O=C1NCCN1c1ncc([N+](=O)[O-])s1; result = 100%
SMILES = COC(=O)[C@H](NC(=O)c1cc(-c2ccccc2)nc2ccccc12)c1ccccc1; result = 102%
SMILES = COc1cc2ncc(-c3ccccc3)nc2cc1OC; result = 99.7%
SMILES = CC(C)C[C@H](NC(=O)[C@H](O)[C@H](N)Cc1ccccc1)C(=O)O; result = 102%
SMILES = COc1cc(O)c2c(c1)C(=O)c1cc(C)cc(O)c1C2=O; result = 103%
SMILES = CN1C(=O)CC(c2ccccc2)C1=O (stereo not drawn); result = 98.5%
SMILES = NS(=O)(=O)c1cc2c(cc1Cl)N=C(CSCc1ccccc1)NS2(=O)=O; result = 99%
SMILES = CCCCCCCCCCCCCCCC[N+](C)(C)C; result = 91.7%

Study 3 — read-out: enzyme activity; action: inhibitor; tested at: 0.5 µM; reference: control; quantity: remaining activity
SMILES: Cc1cncc2cccc(S(=O)(=O)N3CCCN(C(=O)CN)C[C@@H]3C)c12
target = Ribosomal protein S6 kinase alpha-3 (RPS6KA3, Homo sapiens, UniProt P51812); result = 91.8%
target = Vascular endothelial growth factor receptor 1 (FLT1, Homo sapiens, UniProt P17948); result = 96.9%
target = Mitogen-activated protein kinase kinase kinase 20 (MAP3K20, Homo sapiens, UniProt Q9NYL2); result = 108%
target = SRSF protein kinase 1 (SRPK1, Homo sapiens, UniProt Q96SB4); result = 103%
target = Dual specificity protein kinase CLK2 (CLK2, Homo sapiens, UniProt P49760); result = 102%
target = Serine/threonine-protein kinase PAK 6 (PAK6, Homo sapiens, UniProt Q9NQU5); result = 108%
target = Cyclin-dependent kinase 2, with cyclin E (CDK2, Homo sapiens, UniProt P24941); result = 92.3%
target = Calcium/calmodulin-dependent protein kinase type 1 (CAMK1, Homo sapiens, UniProt Q14012); result = 102%
target = Muscle, skeletal receptor tyrosine-protein kinase (MUSK, Homo sapiens, UniProt O15146); result = 88.7%
target = Serine/threonine-protein kinase PAK 1 (PAK1, Homo sapiens, UniProt Q13153); result = 98.1%
target = Serine/threonine-protein kinase Sgk2 (SGK2, Homo sapiens, UniProt Q9HBY8); result = 102%
target = Serine/threonine-protein kinase SIK2 (SIK2, Homo sapiens, UniProt Q9H0K1); result = 89.4%
target = Tyrosine-protein kinase Tec (TEC, Homo sapiens, UniProt P42680); result = 117%
target = Insulin-like growth factor 1 receptor (IGF1R, Homo sapiens, UniProt P08069); result = 110%
target = Dual specificity protein kinase CLK1 (CLK1, Homo sapiens, UniProt P49759); result = 104%
target = Casein kinase I isoform delta (CSNK1D, Homo sapiens, UniProt P48730); result = 107%
target = Protein kinase C theta type (PRKCQ, Homo sapiens, UniProt Q04759); result = 105%
target = Tyrosine-protein kinase JAK1 (JAK1, Homo sapiens, UniProt P23458); result = 108%
target = Tyrosine-protein kinase receptor TYRO3 (TYRO3, Homo sapiens, UniProt Q06418); result = 98.9%
target = Casein kinase I isoform epsilon (CSNK1E, Homo sapiens, UniProt P49674); result = 100%
target = Calcium/calmodulin-dependent protein kinase kinase 1 (CAMKK1, Homo sapiens, UniProt Q8N5S9); result = 115%
target = Ephrin type-A receptor 6 (EPHA6, Homo sapiens, UniProt Q9UF33); result = 92.2%
target = Protein kinase C zeta type (PRKCZ, Homo sapiens, UniProt Q05513); result = 91.2%

Study 4 — tested at: 1 µM; quantity: remaining binding
SMILES: O=C(O)c1cc(-c2ccc(C3CCNCC3)cc2)c2ccc(-c3ccc(C(F)(F)F)cc3)cc2c1
target = Tyrosine-protein kinase Mer (MERTK, Homo sapiens, UniProt Q12866); test = cell-free assay, competition with immobilised ligand; result = 85%
target = Death-associated protein kinase 2 (DAPK2, Homo sapiens, UniProt Q9UIK4); test = cell-free assay, competition with immobilised ligand; result = 100%
target = Death-associated protein kinase 1 (DAPK1, Homo sapiens, UniProt P53355); test = cell-free assay, competition with immobilised ligand; result = 100%
target = Protein-tyrosine kinase 6 (PTK6, Homo sapiens, UniProt Q13882); test = cell-free assay, competition with immobilised ligand; result = 100%
target = Serine/threonine-protein kinase 35 (STK35, Homo sapiens, UniProt Q8TDR2); test = cell-free assay, competition with immobilised ligand; result = 100%
target = Serine/threonine-protein kinase 17B (STK17B, Homo sapiens, UniProt O94768); test = cell-free assay, competition with immobilised ligand; result = 100%
target = Tyrosine-protein kinase SYK (SYK, Homo sapiens, UniProt P43405); test = cell-free assay, competition with immobilised ligand; result = 100%
target = Ephrin type-B receptor 6 (EPHB6, Homo sapiens, UniProt O15197); test = cell-free assay, competition with immobilised ligand; result = 96%
target = Megakaryocyte-associated tyrosine-protein kinase (MATK, Homo sapiens, UniProt P42679); test = cell-free assay, competition with immobilised ligand; result = 100%
target = Tyrosine-protein kinase ABL1, phosphorylated (ABL1, Homo sapiens, UniProt P00519, F317I); test = binding; result = 100%
target = Cyclin-dependent kinase 11B (CDK11B, Homo sapiens, UniProt P21127); test = cell-free assay, competition with immobilised ligand; result = 100%
target = Phosphatidylinositol 4,5-bisphosphate 3-kinase catalytic subunit alpha isoform (PIK3CA, Homo sapiens, UniProt P42336, H1047L); test = cell-free assay, competition with immobilised ligand; result = 100%

A few entries again (study 1):
target = Serine/threonine-protein kinase RIO2 (RIOK2, Homo sapiens, UniProt Q9BVS4); conditions = 10 µM; result = < 50%
target = Non-receptor tyrosine-protein kinase TYK2, JH2 pseudokinase domain (TYK2, Homo sapiens, UniProt P29597); conditions = 1 µM; result = < 50%
target = Proto-oncogene tyrosine-protein kinase receptor Ret (RET, Homo sapiens, UniProt P07949); conditions = 1 µM; result = < 50%
